# Published values collected from several papers.
# Numbered parts are unrelated; each lists some results of a single study. Positions count from the first letter of the parent shown.

# Block 1 — target: CCNE1, cyclin fold, Cln2 fusion (human); method: yeast growth competition, sequencing; medium: yeast; setting: weak parent motif; baseline: not given; direction: higher = stronger binding
# Starting sequence: WEE1 docking peptide (human); HKTFRKLRLFDTP
Substitution,normalised enrichment score
R8P,-0.159
L7K,-0.248
L9C,0.29
L9I,0.346
T12Y,-0.245
L7T,0.75
R8T,0.463
R8G,0.495
T12G,1.59
F4P,0.019
F4E,0.0995
F4S,-0.123
P13M,1.61
R8V,0.552
R8I,2.01
F10M,-0.0245
F10L,0.201

# Block 2 — method: aptamer microarray, sandwich; form: DNA with 2'F-ANA; medium: in vitro; concentration: 200 nM; with: Cy3 exosite-II aptamer, 400 nM; direction: higher = stronger binding; strand: GGTTGGTGTGGTTGG
# Target: Prothrombin, mature alpha-thrombin (F2, Homo sapiens, UniProt P00734)
# Setting: whole 15-mer aptamer, many near background
Modification,mean fluorescence intensity [a.u.]
2'F-ANA at 1 2 3 7 12 13,407
2'F-ANA at 5 8 9 13 14 15,48.2
2'F-ANA at 2 5 7 8 10 11 13 15,49.1
2'F-ANA at 1 3 4 7 9 11,157
2'F-ANA at 2 3 4 5 7 8 11 14,56.2
2'F-ANA at 1 2 3 4 5 6 8 12 15,116
2'F-ANA at 1 2 3 4 5 6 10 12,86.1
2'F-ANA at 3 4 12 15,1060
2'F-ANA at 2 4 6 7 9 13 15,139
2'F-ANA at 1 2 3 5 7 10 13 15,54.3
2'F-ANA at 1 2 3 6 9 10 11 12 14 15,87.2
2'F-ANA at 2 5 7 9 11,66.9
2'F-ANA at 1 3 6 7 8 14 15,99.8
2'F-ANA at 1 5 6 7 8 9 12 15,123
2'F-ANA at 2 3 4 5 8 9 10 12,59.7
2'F-ANA at 1 3 6 7 9 10 12,102
2'F-ANA at 2 3 8 9 12 13 15,870
2'F-ANA at 1 4 6 8 10 13 15,47.4

# Block 3 — method: DHFR PCA, deep sequencing; medium: yeast; with: (+)-ABA 0.032 µM; baseline: wild-type fitted maximum; direction: higher = stronger binding
# Target: ABI1, truncated, D143A, DHFR fusion (Arabidopsis thaliana)
# Setting: methotrexate growth selection, single substitutions
# Starting sequence: PYL1, truncated, DHFR fusion (Arabidopsis thaliana); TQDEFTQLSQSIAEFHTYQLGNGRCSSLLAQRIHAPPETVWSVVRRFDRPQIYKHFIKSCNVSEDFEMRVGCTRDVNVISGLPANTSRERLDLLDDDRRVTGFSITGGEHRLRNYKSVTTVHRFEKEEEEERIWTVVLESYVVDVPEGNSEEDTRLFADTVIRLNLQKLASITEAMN; partner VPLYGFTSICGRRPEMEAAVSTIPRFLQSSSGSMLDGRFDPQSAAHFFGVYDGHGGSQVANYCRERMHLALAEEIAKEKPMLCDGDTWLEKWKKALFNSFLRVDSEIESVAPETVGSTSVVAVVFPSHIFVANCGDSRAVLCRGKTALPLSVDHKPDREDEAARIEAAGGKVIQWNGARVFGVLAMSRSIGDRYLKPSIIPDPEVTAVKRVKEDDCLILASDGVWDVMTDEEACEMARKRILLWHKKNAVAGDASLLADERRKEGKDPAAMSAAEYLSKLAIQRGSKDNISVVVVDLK
Substitution,relative binding score [%]
G81S,32.6
E14A,0.487
Q31I,-0.919
R123H,31.2
K168L,-0.266
L156N,-9.06
D97K,33.5
S171L,16.6
A30C,13
H122Q,-6.18
C72S,21.7
F103R,-2.63
Y53P,-1.72
S11H,10.1
E130G,26.6
T135L,-3.31

# Mixed results
Substance,target,assay,system,setting,how to read,quantity,result
"PhoQ, residues 284 288 289 292 302 303 SLKLQV","PhoP, residues 12 14 15 18 19 GQALL (Escherichia coli, UniProt P23836)","Sort-seq, measured: YFP reporter",E. coli,"PhoQ-PhoP variant library, with: 10 µM Mg2+","baseline: high Mg2+ state, higher = stronger signaling",fold induction,18.7

# A few entries again (block 2):
Modification,mean fluorescence intensity [a.u.]
2'F-ANA at 1 3 6 7 8 14 15,99.8
2'F-ANA at 1 3 6 7 9 10 12,102
2'F-ANA at 2 5 7 8 10 11 13 15,49.1
